# Measured values from different studies.
# Lines come from different studies, so protocols differ. Several values in a cell are separate wells, animals, samples, runs or records. ± gives the spread as reported.
SMILES,test,test system,setting,how to read,Cmax
CCc1cc(C(=O)NC)c2nccc(N3CCc4c(cc(Cn5ccnc5)cc4-c4cn(C)nc4C(F)(F)F)C3=O)c2c1,,"Sprague Dawley rat, male, plasma","oral, 50 mg/kg once daily, 7 days, toxicokinetic satellite group",,4940 ng/mL
Nc1nc(O)c2ncn(COC(CO)CO)c2n1,,"Sprague-Dawley rat, male","oral, 10 mg/kg",,220 ± 110 ng/mL
O=C(Nc1ccc(OC(F)(F)Cl)cc1)c1cnc(N2CC[C@@H](O)C2)c(-c2ccn[nH]2)c1,,"Sprague-Dawley rat, male, plasma","oral, 8 mg/kg",,390 ± 108 ng/mL
Oc1ccc(/C=C/c2cc(O)cc(O)c2)cc1,,"male Wistar rats, plasma","oral, 10 mg/kg",,126 ± 7.5 ng/mL
Nc1ccn([C@@H]2O[C@H](CO)[C@@H](O)C2(F)F)c(=O)n1,,"Sprague-Dawley rat, male, plasma","intravenous, 5 mg/kg",,14800 ± 1120 ng/mL
O=C(O)C1=CO[C@@H](O[C@@H]2O[C@H](CO)[C@@H](O)[C@H](O)[C@H]2O)[C@@H]2C(CO)=CC[C@H]12,,"rat, plasma","oral, 500 mg/kg Eu + 217 mg/kg Pc extract, dosed as combined Eu and Pc extracts",,431 ± 198 ng/mL
Cc1cc(-c2ccc3cc[nH]c(=O)c3c2)ccc1O[C@H]1O[C@H](CO)[C@@H](O)[C@H](O)[C@@H]1O,,"Sprague-Dawley rat, male, plasma","oral, 10 mg/kg",,5.93 ng/mL
CC(C)c1nc(N(C)S(C)(=O)=O)nc(-c2ccc(F)cc2)c1/C=C/[C@@H](O)C[C@@H](O)CC(=O)O,,"rat, Wistar albino, plasma","oral, 20 mg/kg",,850 ng/mL
O=C(O)CCSC[C@H]1O[C@@H]2O[C@H]3[C@H](O)[C@@H](O)[C@@H](O[C@H]4[C@H](O)[C@@H](O)[C@@H](O[C@H]5[C@H](O)[C@@H](O)[C@@H](O[C@H]6[C@H](O)[C@@H](O)[C@@H](O[C@H]7[C@H](O)[C@@H](O)[C@@H](O[C@H]8[C@H](O)[C@@H](O)[C@@H](O[C@H]9[C@H](O)[C@@H](O)[C@@H](O[C@H]1[C@H](O)[C@H]2O)O[C@@H]9CSCCC(=O)O)O[C@@H]8CSCCC(=O)O)O[C@@H]7CSCCC(=O)O)O[C@@H]6CSCCC(=O)O)O[C@@H]5CSCCC(=O)O)O[C@@H]4CSCCC(=O)O)O[C@@H]3CSCCC(=O)O,,"Sprague Dawley rats, plasma","intravenous, 5 mg/kg, with: rocuronium bromide IV",,50600 ng/mL
CCCc1c(-c2ccc(O)cc2)nn(-c2ccc(O)cc2)c1-c1ccc(O)cc1,measured: aglycone,"rat, Long-Evans, female, serum","subcutaneous, 2 mg/kg single dose",,350 ± 40 nM
CN(C(=O)n1cnc(-c2ccc[n+]([O-])c2)c1)C1CCCCC1,,"Wistar Han rat, plasma","oral, 10 mg/kg, 1 h",,4270 ± 352 ng/mL
CCc1c(-c2ccccc2)c(-c2ccccc2)nn1-c1ccccc1-c1cccc(OCC(=O)O)c1,,Sprague-Dawley rat,"intravenous, dose not given",,7460 ng/mL and 7790 ng/mL and 5900 ng/mL
C=CC(=O)N1CCC(Oc2cc3c(Nc4ccc(Cl)c(Cl)c4F)ncnc3cc2OC)CC1,,"Sprague-Dawley rat, male, plasma","oral, 2 mg/kg, 1 weeks pretreatment, with: Schisandrin A 20 mg/kg daily pretreatment",,1410 ± 379 ng/mL
CCn1ccc2c([C@](O)(c3cnc(C(F)(F)F)c(Cl)c3)C3CC3)n(C)nc2c1=O,,"Sprague-Dawley rat, male","oral, 3 mg/kg, suspension",,516 ± 126 nM
Cn1c(C(F)(F)F)cc(=O)n(-c2cc(Oc3cccnc3OCC(=O)O)c(Cl)cc2F)c1=O,,"Crl:CD(SD) rats, female, plasma","oral diet, 300 ppm in diet, day 1, 90-day toxicity study",,349 ng/mL
C=CC(=O)N1CCC[C@@H](n2nc(-c3ccc(Oc4ccccc4)cc3)c3c(N)ncnc32)C1,,"Wistar rat, male, small intestine","oral, 50 mg/kg",,664 ± 33.2 ng/g
N=C(N)NCCNC(=O)C1(Nc2ccccc2)CCN(Cc2ccccc2)CC1,,"male Sprague-Dawley rats, plasma","oral, 50 mg/kg",,424 ± 52.3 ng/mL
CN1CCC[C@H](CN2c3ccccc3Sc3ccccc32)C1.Cl,,"female Wistar rat, liver","oral, 16 mg/kg",,25500 ng/g
O=C(O)c1cc(O)c(O)c(O)c1,,"rat, plasma","oral, 1000 mg/kg extract, possible metabolite or extract component",,1700 ± 390 ng/mL
COc1cc([C@H]2OC[C@H]3[C@@H]2CO[C@@H]3c2ccc(O[C@@H]3O[C@H](CO)[C@@H](O)[C@H](O)[C@H]3O)c(OC)c2)ccc1O[C@@H]1O[C@H](CO)[C@@H](O)[C@H](O)[C@H]1O,,"rat, plasma","oral, 500 mg/kg Eu extract",,66.3 ± 30.9 ng/mL
NCCOCC(=O)N1CCC[C@H](C(=O)NCc2nc(-c3ccc(C(F)(F)F)cc3)cs2)C1,,"Sprague-Dawley rat, male, plasma","oral, 3 mg/kg",,22 nM
CNC(=O)c1cccc(-c2ccc(O[C@H]3O[C@H](CO)[C@@H](O)[C@H](O)[C@@H]3O)c(C)c2)c1,,"male Sprague-Dawley rat, plasma","intravenous, 3 mg/kg, group mean",,1590 ng/mL
C1=C/COCc2cc(ccc2OCCN2CCCC2)Nc2nccc(n2)-c2cccc(c2)COC/1,LC-MS/MS,"Sprague-Dawley rat, male, plasma","oral, 36 mg/kg, with: voriconazole 30 mg/kg oral",,358 ± 214 ng/mL
CN(C)C(=O)c1cc2cnc(Nc3ccc(N4CCNCC4)cn3)nc2n1C1CCCC1,striatal microdialysis,"Sprague-Dawley rat male, brain extracellular fluid","intraperitoneal, 100 mg/kg",,450 nM
C=CC(=O)N1CC2CC(n3nc(-c4ccc(C(=O)Nc5ccccn5)cc4)c4c(N)ncnc43)CC2C1 (stereo not shown),,"male Wistar rats, plasma","oral, 3 mg/kg",,649 ng/mL
CCCCCCCCc1ccc(CCC(N)(CO)CO)cc1,,"male Sprague-Dawley rat, heart","oral, 1 mg/kg, single dose",,416 ng/g
CC(C)(N)COCC(=O)N1CCC[C@H](C(=O)NCc2nc(-c3ccc(C(F)(F)F)cc3)cs2)C1,,"Sprague-Dawley rat, male, plasma","oral, 3 mg/kg",,24 nM
Cc1cccc(CNC(=O)c2cn(CCNC(=O)c3ccccc3Sc3c([N+](=O)[O-])ncn3C)c3cc4c(cc3c2=O)OC(F)(F)O4)n1,,"Sprague-Dawley rat, male, plasma","intramuscular, 30 mg/kg of parent compound",,75 ± 33.5 ng/mL
CCOCc1nc(O)c(-c2nnc(Cc3ccc(Cl)cn3)o2)c(O)c1-c1c(OC)cccc1OC,,"rat, post surgery, plasma","oral, 0.06 mg/kg once daily, day 6 post surgery",,65 nM
OCC1=C[C@@H](O)[C@@H]2C=CO[C@@H](O[C@@H]3O[C@H](CO)[C@@H](O)[C@H](O)[C@H]3O)[C@H]12,,"rat, plasma","oral, 500 mg/kg Eu extract, dosed as Eu extract",,106 ± 73.4 ng/mL
Cc1cccc(CNC(=O)c2cn(CCNC(=O)c3ccccc3S)c3cc4c(cc3c2=O)OC(F)(F)O4)n1,,"Sprague-Dawley rat, male, plasma","intravenous, 5 mg/kg of parent compound",,485 ± 32.6 ng/mL
O=C1c2ccccc2C(=O)N1CCCN1CCN(C(c2ccc(F)cc2)c2ccc(F)cc2)CC1,,"male Sprague-Dawley rat, whole blood","oral, 10 mg/kg",,24.2 ± 19.1 ng/mL
CSc1ccccc1C(=O)NCCn1cc(C(=O)NCc2cccc(C)n2)c(=O)c2cc3c(cc21)OC(F)(F)O3,,"Sprague-Dawley rat, male, whole blood","intramuscular, 30 mg/kg of parent drug",,6.28 ± 2.58 ng/mL
CC(=O)CC(c1ccccc1)c1c(O)c2ccccc2oc1=O (stereo not shown),,"Sprague-Dawley rat, male, plasma","oral, 0.2 mg/kg, with: miconazole",baseline: cpd alone,100%

# A few entries again:
SMILES,test,test system,setting,how to read,Cmax
O=C(O)CCSC[C@H]1O[C@@H]2O[C@H]3[C@H](O)[C@@H](O)[C@@H](O[C@H]4[C@H](O)[C@@H](O)[C@@H](O[C@H]5[C@H](O)[C@@H](O)[C@@H](O[C@H]6[C@H](O)[C@@H](O)[C@@H](O[C@H]7[C@H](O)[C@@H](O)[C@@H](O[C@H]8[C@H](O)[C@@H](O)[C@@H](O[C@H]9[C@H](O)[C@@H](O)[C@@H](O[C@H]1[C@H](O)[C@H]2O)O[C@@H]9CSCCC(=O)O)O[C@@H]8CSCCC(=O)O)O[C@@H]7CSCCC(=O)O)O[C@@H]6CSCCC(=O)O)O[C@@H]5CSCCC(=O)O)O[C@@H]4CSCCC(=O)O)O[C@@H]3CSCCC(=O)O,,"Sprague Dawley rats, plasma","intravenous, 5 mg/kg, with: rocuronium bromide IV",,50600 ng/mL
CCCc1c(-c2ccc(O)cc2)nn(-c2ccc(O)cc2)c1-c1ccc(O)cc1,measured: aglycone,"rat, Long-Evans, female, serum","subcutaneous, 2 mg/kg single dose",,350 ± 40 nM
CN(C(=O)n1cnc(-c2ccc[n+]([O-])c2)c1)C1CCCCC1,,"Wistar Han rat, plasma","oral, 10 mg/kg, 1 h",,4270 ± 352 ng/mL
CCc1c(-c2ccccc2)c(-c2ccccc2)nn1-c1ccccc1-c1cccc(OCC(=O)O)c1,,Sprague-Dawley rat,"intravenous, dose not given",,7460 ng/mL and 7790 ng/mL and 5900 ng/mL
C=CC(=O)N1CCC(Oc2cc3c(Nc4ccc(Cl)c(Cl)c4F)ncnc3cc2OC)CC1,,"Sprague-Dawley rat, male, plasma","oral, 2 mg/kg, 1 weeks pretreatment, with: Schisandrin A 20 mg/kg daily pretreatment",,1410 ± 379 ng/mL
